Results collected from several papers.
Protocols differ between the studies behind these lines. ± gives the spread as reported.

Compound	test	test system	conditions	how to read	measurement	value
O=c1cc(-c2ccc(O)cc2)oc2cc(O)c(-c3ccc(O)c(O)c3)c(O)c12	ABTS scavenging, absorbance	–	–	–	EC50	1050 µM
CCCCC1NC(=O)c2ccccc21 (racemic)	thrombosis	mouse, carrageenan-induced thrombosis	oral, 50 mg/kg daily for 2 days, 24 h after carrageenan	–	black tail occurrence	30%
CCCC[C@H](NC(=O)[C@@H](NC(=O)[C@H](CC(=O)O)NC(=O)[C@H](CCC(N)=O)NC(=O)[C@H](CC(C)C)NC(=O)[C@H](CC(C)C)NC(=O)[C@H](CCCN)NC(=O)[C@H](CCCNC(=N)N)NC(=O)[C@H](C)NC(=O)[C@H](CO)NC(=O)[C@H](CC(C)C)NC(=O)[C@H](CCC(N)=O)NC(=O)[C@H](CC)NC(=O)[C@H](CC(C)C)NC(=O)[C@@H](NC(=O)[C@H](CCCN)NC(=O)[C@H](CCCNC(=N)N)NC(=O)[C@H](Cc1ccc(O)cc1)NC(=O)[C@H](CO)NC(=O)[C@@H](NC(=O)[C@@H](NC(=O)[C@H](Cc1ccccc1)NC(=O)[C@@H](NC(=O)[C@H](C)NC(=O)[C@H](CC(=O)O)NC(=O)[C@@H](C)NC(=O)[C@H](Cc1ccc(O)cc1)NC)[C@@H](C)CC)[C@@H](C)O)[C@@H](C)O)C(C)C)[C@@H](C)CC)C(=O)N[C@@H](CC(=O)O)C(=O)N[C@@H](CCCNC(=N)N)C(=O)NC	GH release	rat, male, serum	subcutaneous, dose not given, 15 and 30 min	relative to: reference GHRH agonist JI-38	relative potency	1 to 4 fold
Cc1ccc([C@@H]2O[C@H](CO)[C@@H](O)[C@H](O)[C@H]2O)cc1Cc1ccc(-c2ccc(F)cc2)s1	–	rabbit, STZ-nicotinamide type 2 diabetes, serum	dose not given, 28 days	–	serum AST activity	163 ± 0.47 U/L
CC1OC(Oc2c(-c3ccc(O)cc3)oc3cc(O)cc(O)c3c2=O)C(OC(=O)C=Cc2ccc(O)cc2)C(O)C1OC(=O)C=Cc1ccc(O)cc1 (stereo not shown)	–	mouse C57BL/6, subcutaneous Hepa1-6, tumour	dose not given, outcome increased	–	CD8 T cell share	increased
CCCC[C@H](NC(=O)[C@@H](NC(=O)[C@H](CC(=O)O)NC(=O)[C@H](CCC(N)=O)NC(=O)[C@H](CC(C)C)NC(=O)[C@H](CC(C)C)NC(=O)[C@H](CCCN)NC(=O)[C@H](CCCNC(=N)N)NC(=O)[C@H](C)NC(=O)[C@H](CO)NC(=O)[C@H](CC(C)C)NC(=O)[C@H](CCC(N)=O)NC(=O)[C@H](CC)NC(=O)[C@H](CC(C)C)NC(=O)[C@@H](NC(=O)[C@H](CCCN)NC(=O)[C@H](CCCNC(=N)N)NC(=O)[C@H](Cc1ccc(O)cc1)NC(=O)[C@H](CO)NC(=O)[C@H](CC(N)=O)NC(=O)[C@@H](NC(=O)[C@H](Cc1ccccc1)NC(=O)[C@@H](NC(=O)[C@H](C)NC(=O)[C@H](CC(=O)O)NC(=O)[C@@H](CC)NC(=O)CCc1ccc(O)cc1)[C@@H](C)CC)[C@@H](C)O)C(C)C)[C@@H](C)CC)C(=O)N[C@@H](CO)C(=O)N[C@@H](CCCNC(=N)N)C(=O)NCCCC(N)=O	GH release	rat, male, serum	intravenous, 1 µg/kg, 15 min	relative to: reference GHRH agonist JI-38	relative potency	1.5
CCc1nc2cc3ccccc3cc2cc1C(=O)N1CCC[C@H]1C(=O)N[C@@H](CCC/C=C/CCC[C@H](NC(=O)[C@@H]1CCCN1C(=O)c1cc2cc3ccccc3cc2nc1CC)C(=O)N[C@@H](CCCCN)C(=O)NCCCN)C(=O)N[C@@H](CCCCN)C(=O)NCCCN	MBNL1-independent splicing	HSA^LR mouse, DM1 model, muscle	intraperitoneal, 40 mg/kg once daily, 5 days	–	Capzb splicing	no effect
CNC(=O)N(C)c1ccc(C(=O)Nc2ccc(C)cc2C(=O)Nc2ccc(Cl)cn2)c(F)c1	–	human plasma	–	–	concentration doubling prothrombin time	10 ± 2 µM
CCCCCCCCCC(=O)NCCCC[C@@H](NC(=O)[C@@H](CC(C)C)NC(=O)[C@@H](CCCCN)NC(=O)[C@@H](CCCCNC(=O)[C@@H](CC(C)C)NC(=O)[C@@H](CCN)NC(=O)[C@@H](CCCCNC(=O)[C@@H](Cc1ccccc1)NC(=O)[C@H](N)CCCN)NC(=O)[C@@H](Cc1ccccc1)NC(=O)[C@H](N)CCCN)NC(=O)[C@@H](CC(C)C)NC(=O)[C@@H](CCN)NC(=O)[C@@H](CCCCNC(=O)[C@@H](Cc1ccccc1)NC(=O)[C@H](N)CCCN)NC(=O)[C@@H](Cc1ccccc1)NC(=O)[C@H](N)CCCN)C(N)=O	carboxyfluorescein release	EYPC vesicles	10 µg/mL, 250 s, pH 7.4, 25 °C	relative to: Triton X-100	leakage	5%
CCc1nnc(NS(=O)(=O)c2ccc(NC(=S)NC(=O)/C=C/c3ccc(F)cc3)cc2)s1	–	NXS2 allograft, A/J mice, tumour	intraperitoneal, 20 mg/kg daily, 3 weeks	relative to: vehicle	IL-1beta level	decreased

A few entries again:
Compound	test	test system	conditions	how to read	measurement	value
CCCCCCCCCC(=O)NCCCC[C@@H](NC(=O)[C@@H](CC(C)C)NC(=O)[C@@H](CCCCN)NC(=O)[C@@H](CCCCNC(=O)[C@@H](CC(C)C)NC(=O)[C@@H](CCN)NC(=O)[C@@H](CCCCNC(=O)[C@@H](Cc1ccccc1)NC(=O)[C@H](N)CCCN)NC(=O)[C@@H](Cc1ccccc1)NC(=O)[C@H](N)CCCN)NC(=O)[C@@H](CC(C)C)NC(=O)[C@@H](CCN)NC(=O)[C@@H](CCCCNC(=O)[C@@H](Cc1ccccc1)NC(=O)[C@H](N)CCCN)NC(=O)[C@@H](Cc1ccccc1)NC(=O)[C@H](N)CCCN)C(N)=O	carboxyfluorescein release	EYPC vesicles	10 µg/mL, 250 s, pH 7.4, 25 °C	relative to: Triton X-100	leakage	5%
CC1OC(Oc2c(-c3ccc(O)cc3)oc3cc(O)cc(O)c3c2=O)C(OC(=O)C=Cc2ccc(O)cc2)C(O)C1OC(=O)C=Cc1ccc(O)cc1 (stereo not shown)	–	mouse C57BL/6, subcutaneous Hepa1-6, tumour	dose not given, outcome increased	–	CD8 T cell share	increased
